Published values of several laboratories.
Numbered parts are unrelated; each lists some results of a single study. Changes are numbered by the printed parent chain.

Set 1
Target: Interferon regulatory factor 7, full length, phosphomimetic (IRF7, Homo sapiens, UniProt Q92985, residues 1-503, S101K/S471D/S472D/S475D/S476D/S477D/S483D/S484D/S487D)
Sequence of UniProt Q92985 (whole entry, unmodified, looked up): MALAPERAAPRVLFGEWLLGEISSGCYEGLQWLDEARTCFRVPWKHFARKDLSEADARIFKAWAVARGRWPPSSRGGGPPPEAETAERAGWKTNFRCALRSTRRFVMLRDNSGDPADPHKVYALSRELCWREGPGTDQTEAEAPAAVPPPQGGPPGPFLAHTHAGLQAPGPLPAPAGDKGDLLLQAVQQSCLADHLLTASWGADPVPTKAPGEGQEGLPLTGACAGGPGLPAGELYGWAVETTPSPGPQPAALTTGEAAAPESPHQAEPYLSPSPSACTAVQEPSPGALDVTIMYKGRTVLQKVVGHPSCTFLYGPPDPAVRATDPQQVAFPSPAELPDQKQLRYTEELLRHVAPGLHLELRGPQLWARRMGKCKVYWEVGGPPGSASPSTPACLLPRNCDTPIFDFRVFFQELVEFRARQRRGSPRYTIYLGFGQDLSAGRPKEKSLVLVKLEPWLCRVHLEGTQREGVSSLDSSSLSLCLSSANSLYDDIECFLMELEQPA
Technique: protein-binding microarray
Molecule type: double-stranded DNA, one strand shown
Matrix: in vitro
Concentration: 250 nM
Setting: 60-bp whole probe
Together with: salmon DNA 0.4 mg/ml
Reference: random background probes
Direction: higher = stronger binding
Endpoint: log fluorescence
All sequences stand within: GCCTAGCAC … GTCTTGATTCGCTTGACGCTGCTG
Strand = GACGATATGAGTCTCGAGACGTGCTAG; value = 0.259 z-score
Strand = TCATATACCACTCTTGCACTGTGCTAG; value = 0.586 z-score
Strand = TTAGATTTCGGGTTTCGATAAGTGCTA; value = 4.54 z-score
Strand = TTAGAACTGGGGCCTGGATTAGTGCTA; value = -0.209 z-score
Strand = GACGATTTCGGGACTGGAGTCGTGCTA; value = 0.144 z-score
Strand = GACGTTTTCAGACTGGAGACGTGCTAG; value = 0.638 z-score
Strand = TTAGATATCAGTATGGATTAGTGCTAG; value = 0.021 z-score
Strand = TTAGGAATCCTACTGCTTTAGTGCTAG; value = -0.153 z-score
Strand = ACAGCTCTGCGGTTCAGATAGTGCTAG; value = -0.592 z-score
Strand = TTAGGTATTGGTTTCGGTTAGTGCTAG; value = 9.24 z-score
Strand = TGTGCTTTCCTGATGGTCCTGTGCTAG; value = 0.546 z-score
Strand = ATCTCACTCTAATCTCACTCTGTGCTA; value = 0.319 z-score
Strand = TTAGATTTCAGTCTCGATTTGTGCTAG; value = 5.76 z-score
Strand = GACGATTTCGGGTCTGGAGACGTGCTA; value = 0.443 z-score
Strand = ATGGTCCTCTCTCTATTCAGGTGCTAG; value = 0.515 z-score
Strand = TCCCACAGTCGAAAGTCTGCGTGCTAG; value = -0.269 z-score
Strand = TCATCCTTTACTTTCTTACTGTGCTAG; value = 1.3 z-score
Strand = GACGGTATCGGGTTACGGGACGTGCTA; value = 2.62 z-score
Strand = TTAAGACTGGGGACTGGGTTAGTGCTA; value = -0.123 z-score
Strand = TGAGGTATCGGTTTCGGTTAGTGCTAG; value = 10.1 z-score
Strand = GACGGTTTCTACACTGGGGACGTGCTA; value = 1.08 z-score

Set 2
Target: CCND3, cyclin fold, Cln2 fusion (human)
Technique: yeast growth competition, sequencing
Matrix: yeast
Setting: weak parent motif
Reference: not given
Direction: higher = stronger binding
Endpoint: normalised enrichment score
Starting sequence: PKN2 docking peptide (human); VSAVRKLDFSDTM; partner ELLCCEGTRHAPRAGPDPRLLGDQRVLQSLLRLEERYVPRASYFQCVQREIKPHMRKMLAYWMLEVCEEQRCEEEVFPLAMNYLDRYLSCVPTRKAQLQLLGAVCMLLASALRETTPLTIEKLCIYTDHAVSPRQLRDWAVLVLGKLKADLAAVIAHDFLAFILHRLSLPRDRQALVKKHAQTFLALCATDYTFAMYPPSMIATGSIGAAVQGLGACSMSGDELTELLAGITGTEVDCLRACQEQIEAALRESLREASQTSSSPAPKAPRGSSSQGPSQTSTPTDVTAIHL
Variant = VSAVRKWDFSDTM [L7W]; value = 0.00206
Variant = VSAVRQLDFSDTM [K6Q]; value = 0.431
Variant = VSAVRKLDYSDTM [F9Y]; value = 0.0796
Variant = VSAVRKLVFSDTM [D8V]; value = 0.445
Variant = VSAVRKLDCSDTM [F9C]; value = -0.0105
Variant = VSAVSKLDFSDTM [R5S]; value = 0.0596
Variant = VSAVRKLIFSDTM [D8I]; value = 0.433
Variant = VSAVRKLDFSDWM [T12W]; value = 0.543
Variant = VSAVRKLDFSLTM [D11L]; value = 0.361
Variant = VSAVRKLAFSDTM [D8A]; value = 0.36
Variant = VSAVRKLDLSDTM [F9L]; value = -0.11
Variant = VSAVPKLDFSDTM [R5P]; value = -0.213
Variant = VSAVRKLQFSDTM [D8Q]; value = 0.621

Set 3
Target: Sal-like protein 4, full length isoform A (SALL4, Homo sapiens, UniProt Q9UJQ4, residues 1-1053)
Sequence of UniProt Q9UJQ4 (whole entry, looked up): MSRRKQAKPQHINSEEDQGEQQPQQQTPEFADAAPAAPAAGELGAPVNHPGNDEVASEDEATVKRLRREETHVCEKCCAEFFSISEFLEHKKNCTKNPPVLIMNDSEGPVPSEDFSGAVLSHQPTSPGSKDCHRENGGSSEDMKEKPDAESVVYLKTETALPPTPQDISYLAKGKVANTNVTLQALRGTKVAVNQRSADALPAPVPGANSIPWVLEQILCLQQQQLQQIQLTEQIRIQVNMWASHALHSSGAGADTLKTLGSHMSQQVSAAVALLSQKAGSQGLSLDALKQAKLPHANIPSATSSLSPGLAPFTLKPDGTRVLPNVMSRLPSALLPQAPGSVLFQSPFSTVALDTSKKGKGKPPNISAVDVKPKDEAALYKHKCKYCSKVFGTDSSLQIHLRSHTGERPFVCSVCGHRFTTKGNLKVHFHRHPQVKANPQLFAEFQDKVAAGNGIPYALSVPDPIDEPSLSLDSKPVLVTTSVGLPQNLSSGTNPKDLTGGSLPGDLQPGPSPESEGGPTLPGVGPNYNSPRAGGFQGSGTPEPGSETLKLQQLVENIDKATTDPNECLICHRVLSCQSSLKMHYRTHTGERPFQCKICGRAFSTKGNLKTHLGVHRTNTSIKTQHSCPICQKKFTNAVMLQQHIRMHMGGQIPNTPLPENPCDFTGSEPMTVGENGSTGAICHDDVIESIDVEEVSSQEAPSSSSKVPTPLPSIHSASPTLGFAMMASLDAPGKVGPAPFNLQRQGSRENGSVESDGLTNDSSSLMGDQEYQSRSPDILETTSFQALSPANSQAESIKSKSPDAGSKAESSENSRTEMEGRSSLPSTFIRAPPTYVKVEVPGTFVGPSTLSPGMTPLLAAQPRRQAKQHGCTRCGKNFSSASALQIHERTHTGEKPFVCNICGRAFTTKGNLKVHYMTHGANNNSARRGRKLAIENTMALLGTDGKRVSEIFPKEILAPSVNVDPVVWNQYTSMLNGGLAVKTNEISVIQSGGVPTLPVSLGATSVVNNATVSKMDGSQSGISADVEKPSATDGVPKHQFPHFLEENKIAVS
Technique: universal PBM
Molecule type: double-stranded DNA, one strand shown
Matrix: in vitro
Concentration: 600 nM
Setting: 8-mer, flanks averaged, mean of replicates
Direction: higher = stronger binding
Endpoint: E-score
Strand = ACACAGCT; value = -0.0433
Strand = AGACTACG; value = -0.194
Strand = TCTTTTCA; value = 0.177
Strand = GAGATGTA; value = 0.205
Strand = TCGGAAAA; value = 0.188
Strand = AAACTTCA; value = 0.242
Strand = CAGTCATA; value = 0.256
Strand = AGTATGAA; value = 0.262
Strand = CGCAGACG; value = -0.181
Strand = CCACAGGC; value = -0.271
Strand = AAATTATA; value = 0.389
Strand = CACTCACA; value = -0.00284
Strand = TCGTCGCA; value = -0.172
Strand = AAAATCTT; value = 0.256
Strand = ATCCTCAT; value = -0.0239
Strand = AAAAACTA; value = 0.215
Strand = ATGGTACA; value = 0.161
Strand = CTGGATTC; value = -0.166

Set 4
Target: RING finger protein unkempt homolog, zinc fingers 1-6, GST-SBP tag (UNK, Homo sapiens, UniProt Q9C0B0, residues 30-357)
Technique: RNA Bind-n-Seq
Molecule type: RNA
Matrix: in vitro
Concentration: not given
Setting: RNA with constant flanks, human and mouse sites, ends assumed
Reference: input RNA pool
Direction: higher = stronger binding
Endpoint: bound/input enrichment
All sequences stand within: GGGAGUUCUACAGUCCGACGAUC … CAACAGAGGAUUGAGCAUCA
Residues (chain): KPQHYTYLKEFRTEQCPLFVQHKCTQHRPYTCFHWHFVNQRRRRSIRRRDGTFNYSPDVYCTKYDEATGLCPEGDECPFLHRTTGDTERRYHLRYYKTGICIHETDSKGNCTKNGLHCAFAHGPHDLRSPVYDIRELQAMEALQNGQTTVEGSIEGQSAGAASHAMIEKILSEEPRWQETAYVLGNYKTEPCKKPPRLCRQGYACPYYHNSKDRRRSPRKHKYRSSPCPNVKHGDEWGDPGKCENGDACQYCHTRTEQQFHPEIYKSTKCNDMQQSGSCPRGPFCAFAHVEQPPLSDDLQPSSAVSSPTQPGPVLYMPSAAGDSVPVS
Strand = AUCAUAAAAUACAUUGUCAACCGAGGAGAACACAAGAAUGGAGUUCUGGAAGAGGCAAUAAUAGCAACAAUUCUUAAAGAGGUUUUGGAAGGCUUAGACUAUCUACACAGAAACGGUCAG; value = 0.843 ratio
Strand = GACAUUAAAAAUUUUCUGUAUGCCUGGUGUGGCAAAAGGAAGAUGACUCCAGCCUAUGAAAUUAGAGCAGUAGGAAACAAAAACAGACAGAAAUUCAUGUGUGAGGUUCGAGUAGAAGGG; value = 1.74 ratio
Strand = GUCCCAGUCUCAGACGCGGCUAAAGCGCUGGGGUCUGAGAAGGAAAGCGACCACGGUGCUUAGGUGUCUUGAAGGAUCAGAGGUACCUAAGGUUCAACCUGUCGAGGAGGCAGUGGAUAU; value = 0.179 ratio
Strand = AGGCGUCACCUUGAUGGCCUGCAACCCCUCCCUGCCUCAUUCUUAGUUCAAGAUCGUCUUUAGUCUCGCUGCGUCCCUUUCCCUUGCACCUGUUAACAUCUUUAAGGCAGGAGCUGAUGA; value = 0.933 ratio
Strand = UUUUUCCCUUUUGUUUUGUUUUUAUUAUUAACUGAUUUAAAGUAGAACAAAAACAGCUUCUGGCGAGGACCAGGCUGACCAGGGUGCUGUAGCCAGCCUGCUUGCUGUACUUGGUCAUUU; value = 0.21 ratio
Strand = GUUUGCUGACACCAUCAAGCAGCUGAGCCAGAAUACAUACACUCCUCGUGAGGCUGGAUCUCAAAAAGAUGAAAGUCUUGCCUAUUAUAUUGAAAAUCAGUUCCAUGAAUUUAAAUUCAG; value = 0.166 ratio
Strand = AUGAGUUAAAUAUAUUUAUAUGUACAUACAUAUAUAUAUCCCUUUACAUAUAUAUGUAUGUGGGUGUGAGUGUGUAUGUGUGGGUGUGUGUUACAUACACAGAAUCAGGCACUUACCUGC; value = 0.574 ratio
Strand = AAGAUCCUCUCGGUAAAUGGCCAAGAUCUGAAGAACCUGCUGCACCAAGAUGCUGUAGACCUCUUCCGUAAUGCGGGAUGUGCUGUGUCCCUGAGAGUACAGCACAGGUUGCUGGUUGUU; value = 0.0876 ratio
Strand = AGGACAGUGCAGAAUUAAACCGUGUUGAAGACCAGUGGAAAUUGUAUAAUUUAACUUGGAUUUAGGCAGGAAGUGAAAUAUGGGAGGAGUAAAGAAAACUGAAGAAUUUAAAGUUUUCCU; value = 0.644 ratio
Strand = UGGGAGUUCAGGUGUGCAAAGAGCUAUCAGAAAACCUAACUAGGUGUGUGGCUUAGUGGCACAAAUACAUUCACAUUGUGUAACUGUCACCACCUGUUUAAAAUUACAAAAACUUUCCUU; value = 0.165 ratio
Strand = CUGCCUCUUAACAAGUUAGAUGUCAGGGAUACAGCCUAUCCUGAAACCAAUGAUGCUAUUCCUAUGAUCAGCAAACUGAGGUACAAUCCCAGAUUUGACAAAGCUUUCAAACAUGUGUUU; value = 0.175 ratio

Set 5
Target: ABI1, truncated, D143A, DHFR fusion (Arabidopsis thaliana)
Technique: DHFR PCA, deep sequencing
Matrix: yeast
Setting: methotrexate growth selection, single substitutions
Together with: (+)-ABA 58 µM
Reference: wild-type fitted maximum
Direction: higher = stronger binding
Endpoint: relative binding score
Starting sequence: PYL1, truncated, DHFR fusion (Arabidopsis thaliana); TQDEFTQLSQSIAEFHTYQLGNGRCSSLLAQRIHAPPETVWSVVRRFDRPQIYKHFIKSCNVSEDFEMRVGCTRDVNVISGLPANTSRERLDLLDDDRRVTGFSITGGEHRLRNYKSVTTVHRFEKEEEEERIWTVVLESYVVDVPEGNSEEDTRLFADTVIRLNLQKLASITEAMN; partner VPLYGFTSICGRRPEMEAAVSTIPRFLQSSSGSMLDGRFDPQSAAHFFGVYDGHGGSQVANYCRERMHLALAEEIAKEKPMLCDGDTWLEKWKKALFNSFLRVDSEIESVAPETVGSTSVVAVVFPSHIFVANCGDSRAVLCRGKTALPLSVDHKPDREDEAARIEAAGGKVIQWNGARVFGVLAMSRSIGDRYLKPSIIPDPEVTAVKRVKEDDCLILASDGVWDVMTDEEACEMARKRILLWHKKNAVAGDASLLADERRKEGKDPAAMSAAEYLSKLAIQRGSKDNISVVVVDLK
Variant = I79K; value = 78.4%
Variant = L166N; value = 7.27%
Variant = S63Y; value = 63%
Variant = E131K; value = 93.1%
Variant = S63G; value = 90.6%
Variant = D65R; value = 81.2%
Variant = E151F; value = 71.1%
Variant = H34Y; value = 86.9%
Variant = W134D; value = 90.3%
Variant = E89P; value = -5.32%
Variant = L8C; value = 73.4%
Variant = E152F; value = 72.3%
Variant = F5H; value = 84.7%
Variant = T1N; value = 87.4%
Variant = H16R; value = 8.38%
Variant = D97A; value = 89.6%
